Measurements pooled from the literature.
Numbered parts are unrelated; each lists some results of a single study.

Set 1
Target: Prothrombin, mature alpha-thrombin (F2, Homo sapiens, UniProt P00734)
Technique: aptamer microarray, sandwich
Form: DNA with 2'F-ANA
Sample: in vitro
Concentration: 200 nM
Notes: whole 15-mer aptamer, many near background
With: Cy3 exosite-II aptamer, 400 nM
Direction: higher = stronger binding
Oligonucleotide: GGTTGGTGTGGTTGG
| Modification | mean fluorescence intensity [a.u.] |
| --- | --- |
| 2'F-ANA at 3 4 5 7 8 9 11 13 15 | 65.5 |
| 2'F-ANA at 1 3 5 8 9 12 13 14 | 47.7 |
| 2'F-ANA at 1 2 3 4 5 6 7 8 9 12 | 139 |
| 2'F-ANA at 4 6 9 11 12 15 | 353 |
| 2'F-ANA at 2 6 7 8 9 10 11 12 13 | 134 |
| 2'F-ANA at 1 5 8 10 14 | 121 |
| 2'F-ANA at 1 4 7 8 | 198 |
| 2'F-ANA at 1 2 3 5 7 9 10 11 12 13 15 | 59.2 |
| 2'F-ANA at 4 7 9 10 12 14 | 102 |
| 2'F-ANA at 7 9 10 13 | 172 |
| 2'F-ANA at 1 2 3 4 5 7 8 9 10 12 | 49.4 |
| 2'F-ANA at 1 6 7 8 12 13 | 319 |
| 2'F-ANA at 2 6 8 10 11 12 13 15 | 139 |
| 2'F-ANA at 2 4 5 7 14 15 | 45.4 |
| 2'F-ANA at 4 5 6 7 8 9 13 15 | 49.1 |
| 2'F-ANA at 2 3 6 11 12 14 | 410 |
| 2'F-ANA at 4 5 10 12 13 | 51.7 |
| 2'F-ANA at 1 2 6 10 12 15 | 70.9 |
| 2'F-ANA at 1 2 4 6 8 11 13 14 15 | 49.3 |
| 2'F-ANA at 4 5 7 8 9 10 11 12 14 15 | 46 |
| 2'F-ANA at 1 3 4 7 8 15 | 293 |
| 2'F-ANA at 3 5 6 7 9 12 13 14 | 60.9 |
| 2'F-ANA at 2 3 4 5 6 7 10 13 15 | 49.6 |
| 2'F-ANA at 5 7 8 9 10 12 13 14 15 | 59.6 |
| 2'F-ANA at 6 8 9 15 | 524 |

Set 2
Target: Interferon regulatory factor 5, full length, phosphomimetic (IRF5, Homo sapiens, UniProt Q13568-2, residues 1-514, K96S/S451D/S453D/S456D/S462D)
Technique: protein-binding microarray
Form: double-stranded DNA, one strand shown
Sample: in vitro
Concentration: 250 nM
Notes: 60-bp whole probe
With: salmon DNA 0.4 mg/ml
Reference: random background probes
Direction: higher = stronger binding
Shared flanks, not repeated: GCCTAGCAC … GTCTTGATTCGCTTGACGCTGCTG
| Oligonucleotide | log fluorescence |
| --- | --- |
| GACGAACTGAGTATCGGGACGTGCTAG | 1.42 z-score |
| TCAGCTTTCTTTTATGCACTGTGCTAG | 1.65 z-score |
| GACGATATCGGGGTTCGAGACGTGCTA | 0.987 z-score |
| GACGGACTGGCCTATCGGGACGTGCTA | -0.316 z-score |
| TTAGGTTTCGGGTCCGGTTAGTGCTAG | 8.03 z-score |
| TCACCTCTGTCATTTTCACTGTGCTAG | 1.85 z-score |
| TTGTGTTTGGGCATTTTTCTAGTGCTA | -0.354 z-score |
| GACGGACTGGGTTACGGGACGTGCTAG | -0.441 z-score |
| TCACTTCTGCCTGTCCAACTGTGCTAG | 0.431 z-score |
| TTAGTTTTCGGTTCCGGTTAGTGCTAG | 9.67 z-score |
| CTTTTTTTTTTTTTTTTTTGGTGCTAG | 1.13 z-score |
| GACGATATAAGTTTCGAGACGTGCTAG | 5.23 z-score |
| GACGACCTCAGTATCGAGACGTGCTAG | 1.34 z-score |
| GACGGACTGGACTTCCGGGACGTGCTA | -0.233 z-score |
| TCATGTCTTCCCCTCTCACTGTGCTAG | 0.0815 z-score |
| TTAGAACTGATTCTCGATTAGTGCTAG | 0.866 z-score |
| GACGGTCTCCTCTTCCTGACGTGCTAG | -0.272 z-score |
| TTAGGTCGCCTTATCCTTTAGTGCTAG | -0.226 z-score |
| GCCGGTTTCGGTATCGGGACGTGCTAG | 10.4 z-score |
| TTAGAACTAAGACTGGATTAGTGCTAG | 0.0972 z-score |
| TCAGTCTTCCCTTTTAAACTGTGCTAG | 0.54 z-score |
| TTAGCTCTCGGACTGGGTTAGTGCTAG | -0.305 z-score |
| TTAGGACTGGGGACTGGGATAGTGCTA | -0.399 z-score |
| TTAGGTATCCATATCCTTTAGTGCTAG | 0.272 z-score |
| TTAGATATCAGTTTCTATTAGTGCTAG | 5.22 z-score |

Set 3
Target: RNA binding protein fox-1 homolog 2, RRM domain, GST-SBP tag (RBFOX2, Homo sapiens, UniProt O43251-10, residues 100-194)
Technique: RNA Bind-n-Seq
Form: RNA
Sample: in vitro
Concentration: 365 nM
Notes: natural RNA segment, single round, ends assumed
Reference: no-protein control
Direction: higher = stronger binding
Shared flanks, not repeated: GGGAGUUCUACAGUCCGACGAUC … UGGAAUUCUCGGGUGCCAA
Target sequence (chain): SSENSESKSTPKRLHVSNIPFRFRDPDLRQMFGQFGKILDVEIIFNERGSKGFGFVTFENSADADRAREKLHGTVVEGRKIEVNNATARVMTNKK
| Oligonucleotide | RBNS enrichment (R) |
| --- | --- |
| UCAGCCUGGCCUCCAGCAGAGCAGAGGCUCUGGAGCUCCACAUCCUGCCUGCAGGGAGCCCUCAGGGUGCCCUCCAGAGUACAGGGAGAAACUAAAGGCAAUAACAGAAG | 0.202 |
| AUUUUUGUUUUCCUAAAGAAAAUGCCUAAUAUAGAGAAAACAAUACAUAUCUUUACAGCUUAUUUGAAUGUGAGAAUUGGAAUAUUACCUGUAUAUAUCAGAUGAGCAGU | 0.908 |
| UCCAUAGUCUCCACUGUGAACUGAGGAGGGGAGGGGUGUGCUGGGGAAUAAAUCUUGUAUGAGAACAUCUUUAAGAGACUGAUGCUGAAUGGUGUCCUACCCUUGAUAGG | 0.442 |
| AGUGUUUGAGCCUACAGUGGGAUACAUAGGGUCAAAUUGAGAAUAAUAAACUGAGUCAUUCUCCUGGGUCAAGUGAGUAUGGAGGCUGAGAGGCAGCAUAUGGCACUUCA | 1.16 |
| GCCCCCCAAGGGGGUCCCCAGCAACCAGGCCUGGCCUCCUGGUGUCUGCGGUCACAGUGGCCCCUGGGCAGGGGCACCCAGGCUGACCCUGAGGUGCUGCUGCUGGGUCU | 0.262 |
| CUAAAAGUACUUGGGUAAACAUACUAAAAUGAAUUAUAUAAUGCAGCCUCUUAAUUCUUUGAAGAACUAAAAAAUUAGGAAACAAAGUUCUAGCAUUUACAAAACUCAGA | 0.848 |
| CUGUGUAGCCCUGGCUGUCCUGGAACUCGCUCUGUAGACCAGGCUGGCCUCAAACUUAGAGAUCUGCCUGACUCUGCCUUUGAGGGCUGGGACGAAUGCCACCACUGCCC | 0.311 |
| AGGUGUUUCUCCUUCUGGAUGAUUCAUCCCAAAGCCUUCCCACCCAGGUGUUCUCUGAAAGCUUAGCCUUAAGAGAACACGCAGAGAGUUUCCCUAGAUAUACUCCUGCC | 0.214 |
| AGGAGCUGUGUGGAGUGAAGGAGAGAAAGUGUGGGAGAUCUCAUUGCUGGAAGGAGAAAAGGAAGGAAUCCCCCGAAAAUCAAAGCAGUCAGAAAAACCAGAGCGACUGU | 1.23 |
| GAAAUAAUUUUAUUUAAUAUAAAUGAUCACAUGUCCUCAAUCAUGAAUGAGGUAGGGAGCCUCUCUCCCCCAGUGGCCAUGUUUACAAAAGUGUGUUUUGUCUAUAAAGU | 0.64 |
| GACAUUACGUUCAAGUGGGCCUCCUGGAACUUAAGAACAAGCACCUCUCCUGUCCCCUUCUGUGUGCACAUAGGUCCAUAGGCUCAUUAGAGGGAUGAGAGUUCCCAUUA | 0.413 |
| UGGUGCCCUGGGCCGUCCCUGUGUGAACGCAGGCAAAAGCAGCCCAGUCCCCCUCACUGCUUGAGCUAACACUGCCACCUCUUUUGUGUGAGCACAAAAGCCACGUCCCA | 0.178 |

Set 4
Target: Histone acetyltransferase KAT6A, winged helix 2, GST fusion (KAT6A, Homo sapiens, UniProt Q92794, residues 85-181)
Technique: protein binding microarray
Form: double-stranded DNA, one strand shown
Sample: in vitro
Concentration: not given
Notes: 8-mer, flanks averaged, mean of 2 arrays, mostly near background
Reference: not given
Direction: higher = stronger binding
Construct (chain): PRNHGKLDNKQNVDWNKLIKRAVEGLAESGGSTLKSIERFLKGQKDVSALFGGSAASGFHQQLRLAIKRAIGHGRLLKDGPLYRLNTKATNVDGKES
| Oligonucleotide | E-score |
| --- | --- |
| AATGCTCC | -0.0882 |
| AGGGAACA | -0.0822 |
| CAGTGTGG | -0.09 |
| CCGTAAAC | -0.0616 |
| ATAGCGAT | -0.0245 |
| GGCTCGAA | 0.125 |
| ACGATGCG | 0.102 |
| CTCCAGAA | 0.0965 |
| GGCGCAAA | 0.178 |
| CATAGTCA | 0.00894 |
| AGGCTGCC | 0.0684 |
| CAGGGAGA | 0.0178 |
| AAAAAAAC | -0.0736 |
| AAACATCA | -0.0783 |
| AATAGAAT | -0.0162 |
| AGAGTGGA | -0.0919 |
| TTAGGGAA | -0.106 |
| CTGTGAAG | 0.0281 |

For quick reference, copied from above (set 1):
| Modification | mean fluorescence intensity [a.u.] |
| --- | --- |
| 2'F-ANA at 1 2 4 6 8 11 13 14 15 | 49.3 |
| 2'F-ANA at 4 5 7 8 9 10 11 12 14 15 | 46 |
| 2'F-ANA at 1 3 4 7 8 15 | 293 |
| 2'F-ANA at 3 5 6 7 9 12 13 14 | 60.9 |
| 2'F-ANA at 2 3 4 5 6 7 10 13 15 | 49.6 |
| 2'F-ANA at 5 7 8 9 10 12 13 14 15 | 59.6 |
| 2'F-ANA at 6 8 9 15 | 524 |
